Measurements of several laboratories.
Protocols differ between the studies behind these lines. ± marks the error that the study gave.
Sequence of UniProt O08562 (whole entry, looked up): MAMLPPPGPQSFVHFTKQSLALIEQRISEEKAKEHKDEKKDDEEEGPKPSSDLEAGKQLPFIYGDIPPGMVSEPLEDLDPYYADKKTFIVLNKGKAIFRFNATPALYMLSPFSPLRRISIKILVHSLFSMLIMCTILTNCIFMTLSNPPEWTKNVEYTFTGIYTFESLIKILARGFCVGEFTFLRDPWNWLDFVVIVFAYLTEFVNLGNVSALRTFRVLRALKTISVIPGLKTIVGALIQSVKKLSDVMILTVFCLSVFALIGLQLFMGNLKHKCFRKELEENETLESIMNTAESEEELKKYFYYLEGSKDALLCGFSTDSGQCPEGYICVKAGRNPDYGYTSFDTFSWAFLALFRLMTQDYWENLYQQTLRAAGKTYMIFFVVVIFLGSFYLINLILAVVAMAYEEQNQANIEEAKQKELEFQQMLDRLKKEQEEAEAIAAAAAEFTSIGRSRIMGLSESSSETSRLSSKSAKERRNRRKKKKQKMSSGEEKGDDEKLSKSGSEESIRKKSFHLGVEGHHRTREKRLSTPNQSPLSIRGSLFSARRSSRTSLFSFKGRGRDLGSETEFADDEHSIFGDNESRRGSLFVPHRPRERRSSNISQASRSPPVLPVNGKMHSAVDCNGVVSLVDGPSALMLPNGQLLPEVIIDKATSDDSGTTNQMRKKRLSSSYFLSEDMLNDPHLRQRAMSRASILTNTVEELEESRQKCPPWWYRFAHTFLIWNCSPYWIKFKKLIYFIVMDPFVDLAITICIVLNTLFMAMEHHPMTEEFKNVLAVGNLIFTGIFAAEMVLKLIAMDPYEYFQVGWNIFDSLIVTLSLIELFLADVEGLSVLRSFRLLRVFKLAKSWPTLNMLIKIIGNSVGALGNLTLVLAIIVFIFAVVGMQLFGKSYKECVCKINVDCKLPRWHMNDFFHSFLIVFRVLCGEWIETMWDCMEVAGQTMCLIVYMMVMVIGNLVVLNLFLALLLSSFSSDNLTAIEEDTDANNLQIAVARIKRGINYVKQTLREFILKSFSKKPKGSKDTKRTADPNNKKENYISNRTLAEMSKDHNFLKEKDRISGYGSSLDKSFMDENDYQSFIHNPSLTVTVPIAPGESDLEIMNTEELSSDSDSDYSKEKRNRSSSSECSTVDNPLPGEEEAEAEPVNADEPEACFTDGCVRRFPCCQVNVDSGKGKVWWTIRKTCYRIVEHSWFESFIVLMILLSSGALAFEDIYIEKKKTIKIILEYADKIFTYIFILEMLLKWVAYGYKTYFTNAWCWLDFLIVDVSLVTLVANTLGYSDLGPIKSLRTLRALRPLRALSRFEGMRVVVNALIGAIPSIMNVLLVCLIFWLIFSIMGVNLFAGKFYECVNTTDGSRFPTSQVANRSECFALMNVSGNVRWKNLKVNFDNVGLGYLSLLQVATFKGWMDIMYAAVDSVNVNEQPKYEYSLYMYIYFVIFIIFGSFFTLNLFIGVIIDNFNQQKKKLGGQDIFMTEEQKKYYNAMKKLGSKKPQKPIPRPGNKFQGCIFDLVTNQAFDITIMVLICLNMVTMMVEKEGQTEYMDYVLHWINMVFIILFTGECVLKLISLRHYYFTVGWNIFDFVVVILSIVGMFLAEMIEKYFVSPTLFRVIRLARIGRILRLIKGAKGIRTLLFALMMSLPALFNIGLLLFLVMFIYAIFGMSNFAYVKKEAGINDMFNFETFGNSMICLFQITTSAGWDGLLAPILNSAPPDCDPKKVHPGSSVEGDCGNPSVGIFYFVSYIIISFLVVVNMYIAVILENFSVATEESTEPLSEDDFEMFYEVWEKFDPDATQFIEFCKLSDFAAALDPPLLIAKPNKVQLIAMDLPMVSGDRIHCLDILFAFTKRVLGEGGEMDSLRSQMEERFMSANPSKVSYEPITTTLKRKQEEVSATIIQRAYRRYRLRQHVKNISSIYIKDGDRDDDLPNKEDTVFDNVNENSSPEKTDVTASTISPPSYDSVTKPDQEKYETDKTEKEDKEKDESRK
Sequence of UniProt P61073 (whole entry, looked up): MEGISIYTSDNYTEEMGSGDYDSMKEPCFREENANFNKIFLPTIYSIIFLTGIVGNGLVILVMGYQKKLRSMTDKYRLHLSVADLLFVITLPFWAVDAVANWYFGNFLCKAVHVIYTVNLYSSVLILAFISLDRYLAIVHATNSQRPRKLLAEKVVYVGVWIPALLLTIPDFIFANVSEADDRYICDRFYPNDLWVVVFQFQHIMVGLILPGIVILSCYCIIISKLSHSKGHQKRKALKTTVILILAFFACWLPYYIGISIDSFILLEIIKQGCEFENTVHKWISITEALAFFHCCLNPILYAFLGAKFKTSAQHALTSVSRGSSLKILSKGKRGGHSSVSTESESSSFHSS
Sequence of UniProt P15207 (whole entry, looked up): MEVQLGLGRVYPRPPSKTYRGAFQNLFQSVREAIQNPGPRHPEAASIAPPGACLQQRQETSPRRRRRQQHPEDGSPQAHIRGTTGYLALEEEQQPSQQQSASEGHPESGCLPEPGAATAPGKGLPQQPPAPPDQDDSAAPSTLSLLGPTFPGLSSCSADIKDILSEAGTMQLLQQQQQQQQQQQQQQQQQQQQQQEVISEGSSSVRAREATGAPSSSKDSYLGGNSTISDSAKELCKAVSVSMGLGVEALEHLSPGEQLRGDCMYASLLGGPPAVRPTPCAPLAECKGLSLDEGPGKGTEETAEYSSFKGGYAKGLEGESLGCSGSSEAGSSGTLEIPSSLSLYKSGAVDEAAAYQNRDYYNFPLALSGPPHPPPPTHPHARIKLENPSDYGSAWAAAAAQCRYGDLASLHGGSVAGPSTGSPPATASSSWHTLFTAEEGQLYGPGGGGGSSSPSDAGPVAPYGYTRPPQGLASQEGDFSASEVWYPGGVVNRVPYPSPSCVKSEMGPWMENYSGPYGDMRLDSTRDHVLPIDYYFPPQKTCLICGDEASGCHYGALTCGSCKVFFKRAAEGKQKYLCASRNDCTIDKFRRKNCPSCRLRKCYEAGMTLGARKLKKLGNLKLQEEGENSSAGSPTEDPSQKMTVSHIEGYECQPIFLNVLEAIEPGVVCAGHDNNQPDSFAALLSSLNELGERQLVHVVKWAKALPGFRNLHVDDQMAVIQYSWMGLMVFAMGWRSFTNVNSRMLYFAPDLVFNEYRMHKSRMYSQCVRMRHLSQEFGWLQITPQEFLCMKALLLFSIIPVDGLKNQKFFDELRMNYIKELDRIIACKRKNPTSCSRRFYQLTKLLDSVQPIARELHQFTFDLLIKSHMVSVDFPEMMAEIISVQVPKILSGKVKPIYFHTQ
Sequence of UniProt Q7Z2W4 (whole entry, looked up): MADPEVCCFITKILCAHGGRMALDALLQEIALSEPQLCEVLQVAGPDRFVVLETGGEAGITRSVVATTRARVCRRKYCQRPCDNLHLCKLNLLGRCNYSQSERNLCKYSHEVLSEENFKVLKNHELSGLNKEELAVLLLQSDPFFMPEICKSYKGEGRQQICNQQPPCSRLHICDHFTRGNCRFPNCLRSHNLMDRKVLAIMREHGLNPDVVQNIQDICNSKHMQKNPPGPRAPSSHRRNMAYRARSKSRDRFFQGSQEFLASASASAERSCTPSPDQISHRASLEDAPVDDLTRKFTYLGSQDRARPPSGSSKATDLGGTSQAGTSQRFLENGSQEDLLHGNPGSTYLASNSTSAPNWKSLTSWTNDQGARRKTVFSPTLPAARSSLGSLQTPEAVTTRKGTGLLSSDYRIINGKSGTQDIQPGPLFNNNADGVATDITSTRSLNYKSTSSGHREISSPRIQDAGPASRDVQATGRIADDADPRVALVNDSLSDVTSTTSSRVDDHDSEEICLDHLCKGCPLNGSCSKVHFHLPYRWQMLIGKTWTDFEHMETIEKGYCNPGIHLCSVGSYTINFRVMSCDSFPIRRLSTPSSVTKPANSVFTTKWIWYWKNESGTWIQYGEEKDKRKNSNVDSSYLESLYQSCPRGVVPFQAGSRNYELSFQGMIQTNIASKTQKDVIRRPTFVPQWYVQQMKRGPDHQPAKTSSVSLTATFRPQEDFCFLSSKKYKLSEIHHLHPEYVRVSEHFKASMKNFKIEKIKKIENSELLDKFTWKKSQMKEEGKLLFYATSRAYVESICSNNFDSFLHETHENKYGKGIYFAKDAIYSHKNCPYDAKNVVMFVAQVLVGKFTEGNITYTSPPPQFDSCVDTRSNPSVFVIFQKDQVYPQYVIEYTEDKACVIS
Sequence of UniProt P02708 (whole entry, looked up): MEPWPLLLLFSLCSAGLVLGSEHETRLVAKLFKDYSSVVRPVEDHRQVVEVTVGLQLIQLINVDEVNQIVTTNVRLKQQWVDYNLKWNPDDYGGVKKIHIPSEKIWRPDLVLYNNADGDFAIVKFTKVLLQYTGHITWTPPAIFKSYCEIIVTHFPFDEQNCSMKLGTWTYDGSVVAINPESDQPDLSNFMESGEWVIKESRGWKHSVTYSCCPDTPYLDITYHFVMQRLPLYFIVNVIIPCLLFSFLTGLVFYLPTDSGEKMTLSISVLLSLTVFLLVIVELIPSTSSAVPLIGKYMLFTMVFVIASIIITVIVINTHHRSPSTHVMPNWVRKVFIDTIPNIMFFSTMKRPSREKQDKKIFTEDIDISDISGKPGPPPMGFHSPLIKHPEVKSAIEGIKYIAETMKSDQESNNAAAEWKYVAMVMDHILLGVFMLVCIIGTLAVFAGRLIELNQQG
Sequence of UniProt P43115 (whole entry, looked up): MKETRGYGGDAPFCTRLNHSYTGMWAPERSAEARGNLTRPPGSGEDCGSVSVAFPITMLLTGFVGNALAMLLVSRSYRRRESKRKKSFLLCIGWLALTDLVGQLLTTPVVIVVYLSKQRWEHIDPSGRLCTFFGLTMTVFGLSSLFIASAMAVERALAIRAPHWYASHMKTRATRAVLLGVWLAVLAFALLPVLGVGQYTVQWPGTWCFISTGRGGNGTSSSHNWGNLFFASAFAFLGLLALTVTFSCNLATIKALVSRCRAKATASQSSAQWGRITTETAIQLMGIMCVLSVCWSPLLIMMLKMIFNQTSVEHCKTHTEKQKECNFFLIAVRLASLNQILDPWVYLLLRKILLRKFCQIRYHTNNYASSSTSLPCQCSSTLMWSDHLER

Cc1ccc(CNC(=O)[C@H](CCc2ccccc2)NC(=O)[C@H](CC(=O)NCC(C)(C)C)NC(=O)CCc2cccc(F)c2)cc1
inhibition (trypsin; enzyme activity, inhibitor; 100 µM): -1%

C[Si](C)(C)C[C@@H](CN)CC(=O)O
inhibition (Sodium-dependent noradrenaline transporter (SLC6A2, Homo sapiens, UniProt P23975); ligand displacement, radioligand; 75 µM): -25%

C/C=C/C(=O)Nc1ccc2nc(NCCCCCN(C)C)nc(NCCCCCCN(C)C)c2c1
inhibition (Histone-lysine N-methyltransferase SETDB1 (SETDB1, Homo sapiens, UniProt Q15047); enzyme activity, inhibitor, radiometric; 10 µM): -4%

CNC(=O)C[C@H](Cc1ccc(C#N)cc1)NC(=O)c1cc(-c2ccc(CN[C@H](C)c3ccc(C)cc3)o2)ccc1Cl
inhibition (Prostaglandin E2 receptor EP3 subtype (PTGER3, Homo sapiens, UniProt P43115); agonist response, antagonist; 10 µM; reference: agonist control): 0%

CC(=O)C12NC(C)(C)CC1(C)C(=O)C1=C2c2c(c3c4n2C(C)(C)CC2=C4C4(CC(C)(C)NC(C)(C4)C2=O)CC3(C)C)C(=O)C(C)(C)N1 (single isomer, unassigned; (+))
inhibition (Sodium channel protein type 9 subunit alpha (Scn9a, Rattus norvegicus, UniProt O08562); ion current, antagonist, whole-cell patch clamp; HEK293T; 10 µM): 2.33 ± 0.06%

CCCCCCCCCCCCNC(=S)NCCCC[C@H](NC(=O)OCc1ccccc1)C(=O)N[C@@H](CCC(=O)O)C(=O)N[C@@H](CCCNC(=N)N)C(N)=O
inhibition (NAD-dependent protein deacetylase sirtuin-3, mitochondrial (SIRT3, Homo sapiens, UniProt Q9NTG7); enzyme activity, inhibitor; 10 µM): 62%

O=C1c2sc(-c3ccc(N4CCC(F)C4)nc3F)nc2CCN1c1cccnc1 (stereo not drawn)
inhibition (CHRNA1/CHRNG/CHRND (Homo sapiens, UniProt P02708+P07510+Q07001); radioligand binding, antagonist; 1 µM): 8%

COCC(=O)N1CCc2cc(-c3csc(NC(=O)c4cc(OC)cc(OC)c4)n3)ccc21
inhibition (Androgen receptor (Ar, Rattus norvegicus, UniProt P15207); cell-free assay; 10 µM): 21%

COc1ccc2c(c1)C(CC(=O)NC(C(=O)NC(CCc1ccccc1)C(=O)NCc1ccc(C)cc1)C(C)O)CC2=O (stereo not drawn)
inhibition (Prothrombin (F2, Homo sapiens, UniProt P00734); enzyme activity, inhibitor; 100 µM): 12%

S=C(NCC1(N2CCCCC2)CCCCC1)NC1CC2CCC1C2 (stereo not drawn)
inhibition (C-X-C chemokine receptor type 4 (CXCR4, Homo sapiens, UniProt P61073); arrestin recruitment, DiscoverX arrestin; 30 µM): 43%

CN(C)CCCCCCNc1nc(NCCCCCN(C)C)nc2ccc(NC(=O)CCl)cc12
inhibition (Histone-lysine N-methyltransferase SETDB1, triple Tudor domain (SETDB1, Homo sapiens, UniProt Q15047); 3.704 µM): 79.3%

O=C(NC1CCC1)[C@H](Cc1c[nH]c2ccccc12)NC(=O)[C@H](CCCCNC(=S)Nc1ccc(F)c(O)c1F)NS(=O)(=O)c1cccc(F)c1
inhibition (NAD-dependent protein deacetylase sirtuin-1 (SIRT1, Homo sapiens, UniProt Q96EB6); enzyme activity, inhibitor; 30 µM): 78%

C=CC(=O)Nc1cccc(-c2cnc3[nH]cc(C(=O)NC(C)(C)C)c3n2)c1
inhibition (NDRG1; kinase activity; 0.1 µM): 4%

CN(Cc1ccc(/C=C/C(=O)NO)cc1)CC12CC3CC(CC(C3)C1)C2
inhibition (human NK1 receptor; agonist radioligand binding; 0.05 µM): -10%

O=c1cc(-c2ccccc2)oc2c(Br)c(O)c(Br)c(O)c12
inhibition (Pancreatic alpha-amylase (AMY2, Sus scrofa, UniProt P00690); enzyme activity, inhibitor; 50 µM, 30 min): 9.22%

CC(=O)N[C@H](C(=O)N[C@@H](CO)C(=O)N[C@@H](Cc1ccccc1)C(=O)N[C@H]1CCCCNC(=N)NCCCCNC(=N)NCCCC[C@@H](C(=O)N[C@@H](CC(C)C)C(=O)N[C@@H](CC(C)C)C(=O)N[C@@H](CO)C(=O)N2CCC[C@H]2C(N)=O)NC(=O)[C@H](Cc2c[nH]c3ccccc23)NC(=O)[C@H](Cc2ccc(O)cc2)NC(=O)[C@H](CCC(=O)O)NC1=O)[C@@H](C)O
inhibition (Protein Mdm4 (MDM4, Homo sapiens, UniProt O15151); protein-protein interaction, inhibitor, TR-FRET; 0.1 µM): ≥ 90%

COc1cc(OC)c(F)c(/C=C/c2cnc3ccn(S(=O)(=O)c4cn(CCF)cn4)c3n2)c1F
inhibition (Vascular endothelial growth factor receptor 1 (FLT1, Homo sapiens, UniProt P17948); 100 nM): 0%

COc1cc(-n2cc3cc(F)cc(C(N)=O)c3n2)cc(Cl)c1C1CC(O)(CCO)Cc2ccccc21 (stereo not drawn)
inhibition (Zinc finger CCCH-type antiviral protein 1 (Homo sapiens, UniProt Q7Z2W4); enzyme activity, inhibitor; 10 µM): 0.67%

Some of these lines once more:
C[Si](C)(C)C[C@@H](CN)CC(=O)O
inhibition (Sodium-dependent noradrenaline transporter (SLC6A2, Homo sapiens, UniProt P23975); ligand displacement, radioligand; 75 µM): -25%

C/C=C/C(=O)Nc1ccc2nc(NCCCCCN(C)C)nc(NCCCCCCN(C)C)c2c1
inhibition (Histone-lysine N-methyltransferase SETDB1 (SETDB1, Homo sapiens, UniProt Q15047); enzyme activity, inhibitor, radiometric; 10 µM): -4%
